Assay results pooled from the literature.
± gives the spread as reported.

| Structure (SMILES) | target | assay | test system | setting | Ki [nM] |
| --- | --- | --- | --- | --- | --- |
| CNC(=O)C1CCN(c2ccccc2NC(=O)c2ccc(-c3cc(O)ccc3C)c(C)n2)CC1 | Tyrosine-protein kinase Fgr (FGR, Homo sapiens, UniProt P09769) | cell-free assay, TR-FRET | – | – | 1.1 |
| CC(C)C[C@H](NC(=O)[C@H](CCCNC(=N)N)NC(=O)[C@H](Cc1c[nH]c2ccccc12)NC(=O)[C@H](Cc1ccccc1)NC(=O)[C@H](Cc1ccccc1)N(C)C(=O)COc1ccccc1)C(=O)N[C@@H](CCCNC(=N)N)C(=O)N[C@@H](CCCNC(=N)N)C(=O)N[C@H](C)C(=O)N[C@@H](CCCNC(=N)N)C(=O)N1CCC[C@H]1C(=O)N[C@@H](CCCCN)C(N)=O | Kappa-type opioid receptor (Oprk1, Rattus norvegicus, UniProt P34975) | ligand displacement, radioligand | – | – | 13.3 |
| CC(=O)N[C@@H](CCCNC(=N)N)C(=O)N[C@@H](Cc1ccc(O)cc1)C(=O)N[C@@H](CCCN/C(N)=N/C(=O)NCCCCN)C(=O)N[C@@H](CC(C)C)C(=O)N[C@@H](CCCNC(=N)N)C(=O)N[C@@H](Cc1ccc(O)cc1)C(N)=O | Neuropeptide Y receptor type 1 (NPY1R, Homo sapiens, UniProt P25929) | ligand displacement, radioligand | – | – | 4830 |
| C[C@]1(COC(=O)Cc2ccc(O)c(O)c2)[C@H](C(=O)O)N2C(=O)/C(=C/c3ccccn3)[C@H]2S1(=O)=O | Beta-lactamase OXA-48 (OXA-48, Klebsiella pneumoniae, UniProt Q6XEC0) | inhibitor | – | added: nitrocefin | 170 ± 10 |
| NCCCC[C@H](NC(=O)[C@H](Cc1c[nH]c2ccccc12)NC(=O)[C@H](CCCCN)NC(=O)CNC(=O)CCC(=O)NN=Cc1cc(C=NNC(=O)CCC(=O)NCC(=O)N[C@@H](CCCCN)C(=O)N[C@@H](Cc2c[nH]c3ccccc23)C(=O)N[C@@H](CCCCN)C(N)=O)cc(C=NNC(=O)CCC(=O)NCC(=O)N[C@@H](CCCCN)C(=O)N[C@@H](Cc2c[nH]c3ccccc23)C(=O)N[C@@H](CCCCN)C(N)=O)c1)C(N)=O | Tryptase beta-2 (TPSB2, Homo sapiens, UniProt P20231) | non-competitive inhibitor | – | – | 105 |
| CCCC(=O)c1ccc2c(c1)sc(=O)n2CCCCCCN1CCCCCC1 | Sigma non-opioid intracellular receptor 1 (Sigmar1, Rattus norvegicus, UniProt Q9R0C9) | binding, radioligand binding | rat liver membranes | added: [3H](+)-pentazocine 5 nM | 10.8 ± 0.4 |
| CC[C@H](C)[C@H](NC(=O)[C@@H]1CSCC(=O)NCC[C@H](NC(=O)[C@H](Cc2ccc(O)cc2)NC(=O)CNC(C)=O)C(=O)N[C@@H](CO)C(=O)N[C@@H](CCCNC(=N)N)C(=O)N[C@@H](CO)C(=O)N[C@@H](Cc2ccc(O)cc2)C(=O)N2CCC[C@H]2C(=O)N2CCC[C@H]2C(=O)N[C@@H](C(C)C)C(=O)N1)C(=O)N1CCC[C@H]1C(=O)N[C@@H](CC(=O)O)C(N)=O | Mannan-binding lectin serine protease 2 (Homo sapiens, UniProt O00187) | enzyme activity, inhibitor | – | – | 41000 |
| NC(=S)N/N=C/c1ccc(OCc2ccccc2)cc1 | Amine oxidase [flavin-containing] B (MAOB, Homo sapiens, UniProt P27338) | enzyme activity, inhibitor | – | – | 72 |
| CC[C@H](C)[C@H](NC(=O)CN)C(=O)N[C@H](C(=O)N[C@@H](CC(N)=O)C(=O)N[C@H](C(=O)N[C@@H](CC(C)C)C(=O)N[C@@H](CCC(N)=O)C(=O)N[C@@H](CCCCN)C(=O)N[C@@H](Cc1ccc(O)cc1)C(=O)N[C@@H](Cc1ccc(O)cc1)C(=O)N[C@H]1CSSC[C@@H]2NC(=O)[C@H](CCCCN)NC(=O)[C@H](CCCNC(=N)N)NC(=O)CNC(=O)[C@H](C)NC(=O)[C@H]([C@@H](C)O)NC(=O)[C@H](CO)NC(=O)[C@@H]3CSSC[C@H](NC(=O)[C@H](CCCNC(=N)N)NC(=O)CNC(=O)CNC(=O)[C@H](CCCNC(=N)N)NC(=O)[C@H](C(C)C)NC(=O)[C@H](CCCNC(=N)N)NC1=O)C(=O)N[C@@H](C)C(=O)N[C@@H](C(C)C)C(=O)N[C@@H](CC(C)C)C(=O)N[C@@H](CO)C(=O)N[C@@H](CSSC[C@@H](C(=O)N[C@@H](CCCNC(=N)N)C(=O)N[C@@H](CCCNC(=N)N)C(=O)N[C@@H](CCCCN)C(=O)N[C@@H](CCCCN)C(N)=O)NC2=O)C(=O)N[C@@H](CC(C)C)C(=O)N1CCC[C@H]1C(=O)N[C@@H](CCCCN)C(=O)N[C@@H](CCC(=O)O)C(=O)N[C@@H](CCC(=O)O)C(=O)N[C@@H](CCC(N)=O)C(=O)N[C@@H]([C@@H](C)CC)C(=O)NCC(=O)N[C@@H](CCCCN)C(=O)N3)[C@@H](C)O)[C@@H](C)CC | Melanocyte-stimulating hormone receptor (MC1R, Homo sapiens, UniProt Q01726) | ligand displacement in cells | – | – | 81 |
| Cc1cc2c(cc1Cl)Cc1c(C(=O)NC3C4(C)CCC(C4)C3(C)C)nn(-c3ccc(Cl)cc3Cl)c1-2 (stereo not shown) | Cannabinoid receptor 1 (Cnr1, Mus musculus, UniProt P47746) | binding, radioligand displacement | mouse brain homogenate without cerebellum | added: [3H]CP-55,940 | 4500 |

Excerpt of the above:
| Structure (SMILES) | target | assay | test system | setting | Ki [nM] |
| --- | --- | --- | --- | --- | --- |
| Cc1cc2c(cc1Cl)Cc1c(C(=O)NC3C4(C)CCC(C4)C3(C)C)nn(-c3ccc(Cl)cc3Cl)c1-2 (stereo not shown) | Cannabinoid receptor 1 (Cnr1, Mus musculus, UniProt P47746) | binding, radioligand displacement | mouse brain homogenate without cerebellum | added: [3H]CP-55,940 | 4500 |
